# Assay results gathered from unrelated publications.
# Numbered parts are unrelated; each lists some results of a single study. Changes are numbered by the printed parent chain.

# Sample 1
# Target: OGT, full length, His-tagged (human)
# Method: phage display, sequencing
# Sample: in vitro
# Tested at: 1 µg OGT
# Notes: single substitutions, 15-mer displayed peptide, unchanged parent 16.7
# Reference: input library
# Direction: higher = stronger binding
# Starting sequence: peptide; NSEYMPQYQIIFAHQ
Change,fold enrichment
NSEYMPQYQIIFASQ [H14S],15 fold
NSEYMPQYQIIFYHQ [A13Y],7.32 fold
GSEYMPQYQIIFAHQ [N1G],15.7 fold
NDEYMPQYQIIFAHQ [S2D],19.5 fold
QSEYMPQYQIIFAHQ [N1Q],16.3 fold
NSEYMPQYQIIFQHQ [A13Q],27.4 fold
NWEYMPQYQIIFAHQ [S2W],13.1 fold
NSEYMPQYQKIFAHQ [I10K],0.571 fold
NSEYMPQYQIIGAHQ [F12G],3.45 fold
NSNYMPQYQIIFAHQ [E3N],12.1 fold
NSWYMPQYQIIFAHQ [E3W],13 fold
NSEYMPMYQIIFAHQ [Q7M],12.8 fold
NSEYMPQYQIMFAHQ [I11M],16.7 fold
NSEYMDQYQIIFAHQ [P6D],0.963 fold
NSEYMEQYQIIFAHQ [P6E],0.752 fold

# Sample 2
# Target: CEBPD, bZIP domain (human)
# Method: DHFR protein complementation
# Sample: yeast
# Notes: single substitutions, most at no-binding floor
# Reference: wild-type JUN-FOS pair
# Direction: higher = stronger binding
# Starting sequence: JUN, bZIP domain (human); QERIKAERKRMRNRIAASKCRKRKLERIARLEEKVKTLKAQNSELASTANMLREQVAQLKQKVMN; partner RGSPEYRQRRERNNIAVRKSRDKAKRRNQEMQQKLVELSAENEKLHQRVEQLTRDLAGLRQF
Change,binding fitness
L52S,-1.52 natural log
N42P,-1.49 natural log
Q41G,-1.45 natural log
L31P,-1.47 natural log
L45P,-1.51 natural log
R30F,-1.36 natural log
S47K,-1.22 natural log
Q41L,-1.44 natural log
R30V,-1.33 natural log
T37C,-1.18 natural log
K39F,-1.44 natural log
S47H,-1.36 natural log
E44R,-1.36 natural log
L52W,-1.46 natural log
E33A,-1.42 natural log
Q41V,-1.43 natural log
E32P,-1.49 natural log
A46P,-1.49 natural log
L38K,-1.44 natural log

# Sample 3
# Target: CCNB1, cyclin fold, Cln2 fusion (human)
# Method: yeast growth competition, sequencing
# Sample: yeast
# Notes: weak parent motif
# Reference: not given
# Direction: higher = stronger binding
# Starting sequence: E2F7 docking peptide (human); SSAQRRLEIPSGG
Change,normalised enrichment score
SSAARRLEIPSGG [Q4A],0.323
SSAQRRAEIPSGG [L7A],-0.139
SSAQKRLEIPSGG [R5K],-0.402
SSAQKRLEFPSGG [R5K I9F],0.369
SSAQARLEIPSGG [R5A],0.593
SSAQARAEIPSGG [R5A L7A],0.0832
SSAQRRLELPSGG [I9L],0.291
SSAQRRLEIPSAG [G12A],-0.249
SSAQRALEIPSGG [R6A],-0.304
ASAQRRLEIPSGG [S1A],0.564

# Sample 4
# Target: ABI1, truncated, D143A, DHFR fusion (Arabidopsis thaliana)
# Method: DHFR PCA, deep sequencing
# Sample: yeast
# Notes: methotrexate growth selection, single substitutions
# Together with: (+)-ABA 0.39 µM
# Reference: wild-type fitted maximum
# Direction: higher = stronger binding
# Starting sequence: PYL1, truncated, DHFR fusion (Arabidopsis thaliana); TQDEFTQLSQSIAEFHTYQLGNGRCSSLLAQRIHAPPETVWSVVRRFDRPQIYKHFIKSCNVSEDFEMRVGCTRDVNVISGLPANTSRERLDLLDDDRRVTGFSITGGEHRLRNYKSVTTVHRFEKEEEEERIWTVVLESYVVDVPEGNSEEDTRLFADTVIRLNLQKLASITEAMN; partner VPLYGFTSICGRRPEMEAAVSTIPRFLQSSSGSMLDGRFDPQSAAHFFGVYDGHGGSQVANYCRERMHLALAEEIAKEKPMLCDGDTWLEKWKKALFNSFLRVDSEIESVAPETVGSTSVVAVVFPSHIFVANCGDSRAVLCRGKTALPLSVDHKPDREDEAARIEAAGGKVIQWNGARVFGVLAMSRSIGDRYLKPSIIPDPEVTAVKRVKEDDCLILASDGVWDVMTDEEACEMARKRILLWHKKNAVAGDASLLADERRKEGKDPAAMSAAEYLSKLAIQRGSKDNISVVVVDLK
Change,relative binding score [%]
R113S,30.5
L164R,37.5
T120C,-4.82
V40M,-10.9
P36H,40.8
I133R,24
G23C,4.44
R90G,-6.09
F124N,-4.88
F56T,-1.7
N61L,35.9
S117L,-2.07
H16E,-0.851
G148S,-9.54
V143E,-1.49

# Some of these lines once more (sample 3):
Change,normalised enrichment score
SSAARRLEIPSGG [Q4A],0.323
SSAQRRAEIPSGG [L7A],-0.139
SSAQKRLEIPSGG [R5K],-0.402
SSAQKRLEFPSGG [R5K I9F],0.369
SSAQARLEIPSGG [R5A],0.593
SSAQARAEIPSGG [R5A L7A],0.0832
SSAQRRLELPSGG [I9L],0.291
SSAQRRLEIPSAG [G12A],-0.249
SSAQRALEIPSGG [R6A],-0.304
